Experimental data gathered from unrelated publications.
Compare with care: the assays were run in different laboratories. Numbers after ± are the reported error.
Technique: steady-state kinetics
B1: Pck1 A467G (Rattus norvegicus, UniProt P07379); chain MPPQLHNGLDFSAKVIQGSLDSLPQEVRKFVEGNAQLCQPEYIHICDGSEEEYGRLLAHMQEEGVIRKLKKYDNCWLALTDPRDVARIESKTVIITQEQRDTVPIPKSGQSQLGRWMSEEDFEKAFNARFPGCMKGRTMYVIPFSMGPLGSPLAKIGIELTDSPYVVASMRIMTRMGTSVLEALGDGEFIKCLHSVGCPLPLKKPLVNNWACNPELTLIAHLPDRREIISFGSGYGGNSLLGKKCFALRIASRLAKEEGWLAEHMLILGITNPEGKKKYLAAAFPSACGKTNLAMMNPTLPGWKVECVGDDIAWMKFDAQGNLRAINPENGFFGVAPGTSVKTNPNAIKTIQKNTIFTNVAETSDGGVYWEGIDEPLAPGVTITSWKNKEWRPQDEEPCAHPNSRFCTPASQCPIIDPAWESPEGVPIEGIIFGGRRPAGVPLVYEALSWQHGVFVGAAMRSEATAGAEHKGKVIMHDPFAMRPFFGYNFGKYLAHWLSMAHRPAAKLPKIFHVNWFRKDKNGKFLWPGFGENSRVLEWMFGRIEGEDSAKLTPIGYVPKEDALNLKGLGDVNVEELFGISKEFWEKEVEEIDKYLEDQVNADLPYEIERELRALKQRISQM
B2: Tcur_2987 Y332L (Thermomonospora curvata, UniProt D1A807); chain ACSEERAAGARPSATQTTGTATEPFHGPHQAGIATPPQAHAVFLGLDLRKGTGRKELGRLMRLLTDDARRLTQGRPALADPEPDLAPLPSRLTFTFGFGPGLFKAAGLEKQRPEGLRPLPPFKVDRLEDRWSGGDLLVQICCDDPITLAHALRMTVKDARAFTRVRWVQRGFRRSPGVQSSGATQRNLMGQLDGTVNPVPGTADFDQAVWVQDGPEWLRGGTTLVLRRIRMELEKWDEADPAGKEFAVGRRLTSGAPLTGRHEHDEPDFDAVDSAGFPVIAENAHIRLAHVDSPRLRMLRRPYNLDEGLTADGRSDAGLLFAAYQADIDRQFIPVQRRLDEGGDLLNLWTTPIGSAVFAIPPGCDENGWIGQGLLG
B3: PduO F112A (Limosilactobacillus reuteri, UniProt Q50EJ2); chain MKIYTKNGDKGQTRIIGKQILYKNDPRVAAYGEVDELNSWVGYTKSLINSHTQVLSNELEEIQQLLFDCGHDLATPADDERHSFKFKQEQPTVWLEEKIDNYTQVVPAVKKAILPGGTQLASALHVARTITRRAERQIVQLMREEQINQDVLIFINRLSDYFFAAARYANYLEQQPDMLYRNSKDVFR
B4: putA D779W (Bradyrhizobium diazoefficiens, UniProt Q89E26); chain MPNIPPPFTAPYAPDDAEIAARLLPASHLSPPQEARIHRTATRLIEAIRKRDDRLGGVEDMLREFALSTKEGLALMVLAEALLRVPDARTADQFIEDKLGEGDFIHHETKSTAFLVNASAWALGLSARVIQPGETPDGTIGRLVKRLGAPAVRTATRQAMRLMGNHFVLGETIEQALERGKPRSGQKTRYSFDMLGEGARTAADARRYFDAYASAIETIGKAAGNHALPDRPGISVKLSALHPRFEAISRARVMVELVPQLLDLAQRAKAHDLNFTVDAEEADRLELSLDVIAATLADPSLKGWDGFGLAIQAYQKRASAVIDYVDALARAHDRKLMVRLVKGAYWDTEIKRAQERGLDGYPVFTRKAMTDLNYVACASKLLALRPRIFPQFATHNALTVATVLEMAEGSSGFEFQRLHGMGEALYEQLAKDHADIAYRTYAPVGSHRDLLAYLVRRLLENGANSSFVAQAADYRVPVPALLQRPADAIVRPQAAAHPRIPLPCDLFAPERRNSRGVEFGARTALDQLLTDVKAETGDLKPIADATPDQAHAAVAAARAGFAGWSRTPAGIRAAALEQAAHLLESRSAHFIALLQREGGKTLDDALSELREAADFCRYYAAQGRKLFGSETAMPGPTGESNALTMRGRGVFVAISPWNFPLAIFLGQVTAALMAGNSVVAKPAEQTPRIAREAVALLHEAGIPKSALYLVTGDGRIGAALTAHPDIAGVVFTGSTEVARSINRALAAKDGPIVPLIAETGGINAMIADATALPEQVADWVVTSAFRSAGQRCSALRLLFVQEDVADRMIEMVAGAARELKIGDPSDVATHVGPVIDVEAKQRLDAHIARMKTEARLHFAGPAPEGCFVAPHIFELTEAGQLTEEVFGPILHVVRYRPENLERVLRAIERTGYGLTLGVHSRIDDSIEAIIDRVQVGNIYVNRNMIGAVVGVQPFGGNGLSGTGPKAGGPHYLARFATEQTVTINTAAAGGNAALLAGEE
B5: PRXC1A (Armoracia rusticana, UniProt P00433); chain QLTPTFYDNSCPNVSNIVRDTIVNELRSDPRIAASILRLHFHDCFVNGCDASILLDNTTSFRTEKDAFGNANSARGFPVIDRMKAAVESACPRTVSCADLLTIAAQQSVTLAGGPSWRVPLGRRDSLQAFLDLANANLPAPFFTLPQLKDSFRNVGLNRSSDLVALSGGHTFGKNQCRFIMDRLYNFSNTGLPDPTLNTTYLQTLRGLCPLNGNLSALVDFDLRTPTIFDNKYYVNLEEQKGLIQSDQELFSSPNATDTIPLVRSFANSTQTFFNAFVEAMDRMGNITPLTGTQGQIRLNCRVVNSNS
B6: protein Y93T (Thermus thermophilus, UniProt Q5SKR5); chain MSAPKPFVIGIAGGTASGKTTLAQALARTLGERVALLPMDHYYKDLGHLPLEERLRVNYDHPDAFDLALYLEHAQALLRGLPVEMPVYDFRATTRSPRRTPVRPAPVVILEGILVLYPKELRDLMDLKVFVDADADERFIRRLKRDVLERGRSLEGVVAQYLEQVKPMHLHFVEPTKRYADVIVPRGGQNPVALEMLAAKALARLARMGAA
B7: Paox H64Q (Mus musculus, UniProt Q8C0L6); chain MAFPGPRVLVVGSGIAGLGAAQKLCSHRAAPHLRVLEATASAGGRIRSERCFGGVVELGAHWIQGPSQDNPVFQLAAEFGLLGEKELSEENQLVDTGGHVALPSMIWSSSGTSVSLELMTEMARLFYGLIERTREFLNESETPMASVGEFLKKEISQQVASWTEDDEDTRKRKLAILNTFFNIECCVSGTHSMDLVALAPFGEYTVLPGLDCILAGGYQGLTDRILASLPKDTVAFDKPVKTIHWNGSFQEAAFPGETFPVLVECEDGARLPAHHVIVTVPLGFLKEHQDTFFEPPLPAKKAEAIKKLGFGTNNKIFLEFEEPFWEPDCQFIQVVWEDTSPLQDTALSLQDTWFKKLIGFLVQPSFESSHVLCGFIAGLESEFMETLSDEEVLLSLTQVLRRVTGNPQLPAAKSVRRSQWHSAPYTRGSYSYVAVGSTGDDLDLMAQPLPEDGTGTQLQVLFAGEATHRTFYSTTHGALLSGWREADRLVSLWDSQVEQSRPRL
B8: LYS12 D271N (Saccharomyces cerevisiae, UniProt P40495); chain SLTIGLIPGDGIGKEVIPAGKQVLENLNSKHGLSFNFIDLYAGFQTFQETGKALPDETVKVLKEQCQGALFGAVQSPTTKVEGYSSPIVALRREMGLFANVRPVKSVEGEKGKPIDMVIVRENTEDLYIKIEKTYIDKATGTRVADATKRISEIATRRIATIALDIALKRLQTRGQATLTVTHKSNVLSQSDGLFREICKEVYESNKDKYGQIKYNEQIVDSMVYRLFREPQCFDVIVAPNLYGDILSNGAAALVGSLGVVPSANVGPEIVIGEPCHGSAPDIAGKGIANPIATIRSTALMLEFLGHNEAAQDIYKAVDANLREGSIKTPDLGGKASTQQVVDDVLSRL
B9: hdhb (Clostridium sardiniense, UniProt G9FRD6); chain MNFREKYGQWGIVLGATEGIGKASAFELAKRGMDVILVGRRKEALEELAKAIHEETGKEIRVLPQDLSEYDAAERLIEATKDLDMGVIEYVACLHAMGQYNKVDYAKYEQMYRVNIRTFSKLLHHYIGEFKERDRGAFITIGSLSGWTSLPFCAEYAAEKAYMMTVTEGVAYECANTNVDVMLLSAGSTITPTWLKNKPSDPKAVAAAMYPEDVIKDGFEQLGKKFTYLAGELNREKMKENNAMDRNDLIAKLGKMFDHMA
B10: cyc1 F332A (Streptomyces coelicolor, UniProt Q9K499); chain MHAFPHGTTATPTAIAVPPSLRLPVIEAAFPRQLHPYWPKLQETTRTWLLEKRLMPADKVEEYADGLCYTDLMAGYYLGAPDEVLQAIADYSAWFFVWDDRHDRDIVHGRAGAWRRLRGLLHTALDSPGDHLHHEDTLVAGFADSVRRLYAFLPATWNARFARHFHTVIEAYDREFHNRTRGIVPGVEEYLELRRLTFAHWIWTDLLEPSSGCELPDAVRKHPAYRRAALLSQEFAAWYNDLCSLPKEIAGDEVHNLGISLITHHSLTLEEAIGEVRRRVEECITEFLAVERDALRFADELADGTVRGKELSGAVRANVGNMRNWFSSVYWAHHESGRYMVDSWDDRSTPPYVNNEAAGEK

B1 (Pck1 A467G) — kcat/Km (Nc1nc2c(ncn2[C@@H]2O[C@H](COP(=O)(O)OP(=O)(O)OP(=O)(O)O)[C@@H](O)[C@H]2O)c(=O)[nH]1; pH 7.5, 25 °C): 270000 M⁻¹ s⁻¹
B2 (Tcur_2987 Y332L) — kcat/Km (Nc1c(S(=O)(=O)O)cc(Nc2cccc(S(=O)(=O)CCOS(=O)(=O)O)c2)c2c1C(=O)c1ccccc1C2=O; pH 3, sigmoidal kinetics, with: H2O2 1 mM): 2.5e+06 M⁻¹ s⁻¹
B3 (PduO F112A) — kcat/Km (Nc1ncnc2c1ncn2[C@@H]1O[C@H](COP(=O)(O)OP(=O)(O)OP(=O)(O)O)[C@@H](O)[C@H]1O; pH 8, 37 °C, anoxic, with: cob(I)alamin): 170 ± 40 M⁻¹ s⁻¹
B4 (putA D779W) — kcat/Km (O=C(O)[C@@H]1CCC=N1; pH 7.5, 23 °C): 8.6 ± 4 M⁻¹ s⁻¹
PRP43 (Saccharomyces cerevisiae, UniProt P53131) — kcat/Km (O=c1ccn([C@@H]2O[C@H](COP(=O)(O)OP(=O)(O)OP(=O)(O)O)[C@@H](O)[C@H]2O)c(=O)[nH]1; pH 8): 81500 ± 4200 M⁻¹ s⁻¹
B5 (PRXC1A) — kcat/Km (CCn1c(=NN=c2sc3cc(S(=O)(=O)O)ccc3n2CC)sc2cc(S(=O)(=O)O)ccc21; apparent): 1.44e+06 M⁻¹ s⁻¹
B6 (protein Y93T) — kcat/Km (Nc1ccn([C@@H]2O[C@H](CO)[C@@H](O)[C@H]2O)c(=O)n1; pH 7.2, 25 °C, KCl 100 mM, with: ATP 100–200 µM): 5300 M⁻¹ s⁻¹
B7 (Paox H64Q) — kcat/Km (c1ccc(CNCCCCNCc2ccccc2)cc1; pH 8.6, 30 °C): 1600 ± 600 M⁻¹ s⁻¹
ASRGL1 (Homo sapiens, UniProt Q7L266) — kcat/Km (NCCCC[C@H](NC(=O)C[C@H](N)C(=O)O)C(=O)O; pH 7.4, 37 °C, NaCl 100 mM): 1000 ± 300 M⁻¹ s⁻¹
B8 (LYS12 D271N) — kcat/Km (NC(=O)c1ccc[n+]([C@@H]2O[C@H](COP(=O)([O-])OP(=O)(O)OC[C@H]3O[C@@H](n4cnc5c(N)ncnc54)[C@H](O)[C@@H]3O)[C@@H](O)[C@H]2O)c1; pH 7.5, 25 °C, potassium acetate 100 mM, with: Mg-cosubstrate varied; Mg2+ 10 mM): 1080 ± 30 M⁻¹ s⁻¹
BaiA1 (Clostridium scindens, UniProt P07914) — kcat/Km (C[C@H](CCC(=O)SCCNC(=O)CCNC(=O)[C@H](O)C(C)(C)COP(=O)(O)OP(=O)(O)OC[C@H]1O[C@@H](n2cnc3c(N)ncnc32)[C@H](O)[C@@H]1OP(=O)(O)O)[C@H]1CC[C@H]2[C@@H]3CC[C@@H]4C[C@H](O)CC[C@]4(C)[C@H]3CC[C@]12C; pH 8.7, 37 °C, with: NAD+): 33300 M⁻¹ s⁻¹
B9 (hdhb) — kcat/Km (NC(=O)c1ccc[n+]([C@@H]2O[C@H](COP(=O)(O)OP(=O)(O)OC[C@H]3O[C@@H](n4cnc5c(N)ncnc54)[C@H](OP(=O)(O)O)[C@@H]3O)[C@@H](O)[C@H]2O)c1; pH 8, 25 °C, cofactor varied): 72600 M⁻¹ s⁻¹
B10 (cyc1 F332A) — kcat/Km (CC(C)=CCC/C(C)=C/CC/C(C)=C/CO[P@@](=O)(O)OP(=O)(O)O; pH 6.5, 30 °C, with: MgCl2 10 mM): 290 ± 80 M⁻¹ s⁻¹
Ptb (Listeria monocytogenes, UniProt Q8Y7B7) — kcat/Km (CCCC(=O)SCCNC(=O)CCNC(=O)[C@H](O)C(C)(C)COP(=O)(O)OP(=O)(O)OC[C@H]1O[C@@H](n2cnc3c(N)ncnc32)[C@H](O)[C@@H]1OP(=O)(O)O; pH 7.5, 25 °C, apparent): 8.43e+06 M⁻¹ s⁻¹
